Measured values pooled from the literature.
± marks the error that the study gave.

`O=c1ccn([C@@H]2O[C@H](CO)[C@@H](O)[C@H]2F)c(=O)[nH]1` has a CC50 of over 250 µM (SkMC; sulforhodamine B; 11 days, glucose medium).
`CC(C)C1CCC(C)C23CC4CC5=C(OC4(C)C2C13)C(C)(C)C(=O)C(=C(O)C=Cc1ccccc1)C5=O` (centres unmarked) has a CC50 of over 50 µM (HEp-2; cell growth or viability).
With `O=c1c2cc([N+](=O)[O-])ccc2n(CCO)n1Cc1ccccc1` the selectivity index was 12 (Leishmania amazonensis; promastigotes, MHOM/BR/77/LTB0016; reference: CC50 macrophages over IC50 promastigotes).
`COc1c(C)c(O)c(C)c(O)c1C(=O)C1C(CC=C(C)C=O)C(C)=CCC1c1ccccc1` (centres unmarked) has a CC50 of over 50 µM (HEp-2; cell growth or viability).
For `COc1cc(CNC(=O)C[C@H](C)CCC=C(C)C)ccc1OCc1cn(-c2cccc(Cl)c2)nn1`, the growth percent was 86% (SF-268 CNS cancer cells; SRB; 10 µM, 48 h).
With `Cc1cc(OCc2nnc(SC3CCCC3)n2-c2cccnc2)ccc1-c1ccc(S(C)(=O)=O)cc1` the CC50 was 4 µM (human foreskin fibroblasts; MTS; 6 days).
`C=C1CC[C@H]2Cc3c(c(C)c(O)c(C(=O)/C=C/c4ccccc4)c3OC)O[C@]2(C)CC[C@@H]2[C@@H]1CC2(C)C` has a CC50 of over 50 µM (HEp-2; cell growth or viability).
`C/C=C/CNC(=N)NCCCCCCCCN1CCCc2ccccc2COc2ccccc2CNC(=N)NC1=O` gave a CC50 of 36.2 ± 1.86 µg/mL (normal human dermal fibroblasts; MTT; 48 h).
For `Cc1cc(C#N)cc(C)c1Oc1nc(NC2CCN(Cc3ccccc3C#N)CC2)nc2ccccc12`, the CC50 was over 0.256 µM (TZM-bl; cell growth or viability, XTT).
`CC1CCC2C1C1C(CCC23CCC2=C(O3)C(C)(C)C(=O)C(=C(O)C=Cc3ccccc3)C2=O)C1(C)C` (centres unmarked) has a CC50 of over 50 µM (HEp-2; cell growth or viability).
For `C/C=C/CNC(=N)NCCCCCCCCN1CCCc2ccc(F)cc2COc2ccccc2CNC(=N)NC1=O`, the CC50 was 24.9 ± 1.07 µg/mL (normal human dermal fibroblasts; MTT; 48 h).
For `Nc1ncnc2c1ncn2[C@@H]1O[C@H](CO)[C@@H](O)[C@H]1F`, the CC50 was 108 µM (SNB-78; cell growth or viability, SRB; 11 days).
With `Cc1ccc2c(c1)C(C(C)C)CCC21CCC2=C(O1)C(C)(C)C(=O)C(=C(O)C=Cc1ccccc1)C2=O` (centres unmarked) the CC50 was over 50 µM (HEp-2; cell growth or viability).
`Cc1cc(C#N)cc(C)c1Oc1nc(NC2CCN(Cc3ccc(S(N)(=O)=O)cc3)CC2)nc2cccnc12` has a CC50 of 53.5 µM (TZM-bl; cell growth or viability, XTT).
The CC50 of `Nc1ccn([C@@H]2O[C@H](CO)[C@@H](O)[C@H]2F)c(=O)n1` is reported as over 250 µM (SNB-78; cell growth or viability, SRB; 11 days).
The CC50 of `C=C1C(=O)O[C@@H]2C[C@H](C)[C@@H]3C[C@H](O)[C@H](O)[C@@]3(C)C[C@H]12` is reported as 29.4 µM (BALB/c mouse splenocytes; propidium iodide flow cytometry; 48 h, 10% fetal calf serum).
`OC[C@H]1O[C@@H](n2cnc3c(O)ncnc32)[C@H](F)[C@@H]1O` has a CC50 of over 250 µM (SkMC; sulforhodamine B; 11 days, galactose medium).
`N=C(N)NCCC[C@@H]1NC(=O)[C@H](CCCCNC(=O)CC[C@H](NC(=O)CC[C@H](NC(=O)CN2CCN(CC(=O)O)CCN(CC(=O)O)CCN(CC(=O)O)CC2)C(=O)N[C@@H](CCC(=O)NCCCC[C@@H]2NC(=O)[C@@H](Cc3ccccc3)NC(=O)[C@H](CC(=O)O)NC(=O)CNC(=O)[C@H](CCCNC(=N)N)NC2=O)C(=O)NCCCC[C@@H]2NC(=O)[C@@H](Cc3ccccc3)NC(=O)[C@H](CC(=O)O)NC(=O)CNC(=O)[C@H](CCCNC(=N)N)NC2=O)C(=O)NCCCC[C@@H]2NC(=O)[C@@H](Cc3ccccc3)NC(=O)[C@H](CC(=O)O)NC(=O)CNC(=O)[C@H](CCCNC(=N)N)NC2=O)NC(=O)[C@@H](Cc2ccccc2)NC(=O)[C@H](CC(=O)O)NC(=O)CNC1=O` [indium-111 labelled] has a tissue uptake of 2.75 ± 0.29 %ID/g (female athymic nu/nu mice, liver; intravenous, 4 h).
`Cc1cc(/C=C/C#N)cc(C)c1Oc1nc(NC2CCN(Cc3ccc(S(C)(=O)=O)cc3)CC2)nc2ncccc12` — result for CC50: “not toxic” (TZM-bl; XTT; up to 30 µg/mL).
For `C=C1C(=O)O[C@@H]2C[C@H](C)[C@@H]3C[C@H](OCc4cn(Cc5ccccc5)nn4)[C@H](OCc4cn(Cc5ccccc5)nn4)[C@@]3(C)C[C@H]12`, the CC50 was 376 ± 6.57 µM (BALB/c mouse splenocytes; propidium iodide flow cytometry; 48 h, 10% fetal calf serum).
For `COc1cc(CNC(=O)C[C@H](C)CCC=C(C)C)ccc1OCc1cn(-c2ccc([N+](=O)[O-])cc2)nn1`, the growth percent was 41.4% (MDA-MB-468 breast cancer cells; SRB; 10 µM, 48 h).
With `CC(C)=CCC/C(C)=C/Cc1c(CCC(=O)c2ccc(O)cc2O)ccc(O)c1O` the CC50 was 19.7 ± 2.18 µM (DLD-compound; CCK-8; 48 h).
With `Cc1cc(C#N)cc(C)c1Oc1nc(NC2CCN(Cc3ccccc3Br)CC2)nc2ccccc12` the CC50 was over 0.231 µM (TZM-bl; cell growth or viability, XTT).
`C=C1CC[C@@H]2CC3=C(O[C@@]2(C)CC[C@@H]2[C@@H]1CC2(C)C)C(C)(C)C(=O)/C(=C(O)\C=C\c1ccccc1)C3=O` gave a CC50 of over 50 µM (HEp-2; cell growth or viability).
`C=Cn1c2ccc([N+](=O)[O-])cc2c(=O)n1Cc1ccccc1` has a selectivity index of 5 (Leishmania amazonensis; promastigotes, MHOM/BR/77/LTB0016; reference: CC50 macrophages over IC50 promastigotes).
`C=C1C(=O)O[C@@H]2C[C@H](C)[C@@H]3C[C@H](OCc4cn(Cc5ccccc5)nn4)[C@H](O)[C@@]3(C)C[C@H]12` has a CC50 of 158 µM (BALB/c mouse splenocytes; propidium iodide flow cytometry; 48 h, 10% fetal calf serum).
`CC1(C)C(=O)C(=C(O)C=Cc2ccccc2)C(=O)C2=C1OC1(CC2)CCC2CC1C2(C)C` (centres unmarked) has a CC50 of over 50 µM (HEp-2; cell growth or viability).
`Cc1cc(C#N)cc(C)c1Oc1nc(NC2CCN(Cc3ccc(C(N)=O)cc3)CC2)nc2cccnc12` has a CC50 of 48.1 µM (TZM-bl; cell growth or viability, XTT).
With `Cc1nc([C@@H](NC(=O)c2ccc(-c3ccc(Cl)cc3)[nH]2)[C@@H]2CCCCN2)sc1CO` the CC50 was about 28 µM (TZM-bl; cell growth or viability, XTT).
The CC50 of `COc1cc2nc(NC3CCN(Cc4ccc(S(C)(=O)=O)cc4)CC3)nc(Oc3c(C)cc(C#N)cc3C)c2cc1OC` is reported as 9.14 µM (TZM-bl; cell growth or viability, XTT).
`Cn1c(=O)oc2ccc(-c3ccc(CC(C#N)NC(=O)C4CNCCCO4)c(F)c3)cc21` (centres unmarked) has an AUC(0-t) of 3290 ng·h/mL (human volunteers, plasma; 40 mg single dose, fasted, geometric mean).
For `Cc1cc(/C=C/C#N)cc(C)c1Oc1nc(NC2CCN(Cc3ccc(C(N)=O)cc3)CC2)nc2ccccc12`, the CC50 was 53.7 µM (TZM-bl; cell growth or viability, XTT).
For `COc1c(C)c2c(c(O)c1C(=O)C=Cc1ccccc1)CC1CCC(C)=CCC(C)(C)C=CCC1(C)O2` (centres unmarked), the CC50 was over 50 µM (HEp-2; cell growth or viability).
`Cc1cc(C#N)cc(C)c1Oc1nc(NC2CCN(Cc3ccc([N+](=O)[O-])cc3)CC2)nc2ccccc12` gave a CC50 of over 0.246 µM (TZM-bl; cell growth or viability, XTT).
With `[64Cu+2].c1cnc(CNCc2ccc(CN3CCCN4CCNCCCN(CC4)CC3)cc2)nc1` the tissue uptake was 12.8 ± 1.43 %ID/g (CXCR4; NOD/SCID mouse, U87 and U87-stb-CXCR4 xenografts, spleen; iv, 240 min, ex vivo).

Repeated from above:
`Cc1cc(C#N)cc(C)c1Oc1nc(NC2CCN(Cc3ccc([N+](=O)[O-])cc3)CC2)nc2ccccc12` gave a CC50 of over 0.246 µM (TZM-bl; cell growth or viability, XTT).
`C=Cn1c2ccc([N+](=O)[O-])cc2c(=O)n1Cc1ccccc1` has a selectivity index of 5 (Leishmania amazonensis; promastigotes, MHOM/BR/77/LTB0016; reference: CC50 macrophages over IC50 promastigotes).
